# Measurements from different studies.
# Lines come from different studies, so protocols differ.
# Target: Serine/threonine-protein kinase mTOR (MTOR, Homo sapiens, UniProt P42345)
Structure (SMILES),observed,action,technique,tested at,measurement,value
C=CC(=O)Nc1cc(-c2nn(C3CCN(CCNC(=O)[C@H](C)CCC45CC6CC(CC(C6)C4)C5)CC3)c3ncnc(N)c23)ccc1Oc1ccccc1,,inhibitor,,2 µM,inhibition,5.1%
Cc1cccc(O[C@H]2CCC[C@@H](C(C)CNCc3ccncc3)C2)c1 (relative stereo),enzyme activity,inhibitor,,10 µM,inhibition,-5%
CNC(=O)C[C@H](Cc1ccc(C#N)cc1)NC(=O)c1cc(-c2ccc(CN[C@H](C)c3ccc(C)cc3)o2)ccc1Cl,enzyme activity,inhibitor,,1 µM,activity vs control,100%
Cc1ccc(-c2c(/C=C(\C#N)C(=O)NC(C)C)n(CCCO)c3ncnc(N)c23)cc1,cell-free assay,,competition with immobilised ligand,1 µM,remaining binding,92%
C[C@H]1CN(C(=O)c2cn(-c3ccnc(N)n3)c3cc(C#CC4(O)CCCCC4)ccc23)CCN1,enzyme activity,inhibitor,FRET,1 µM,inhibition,2%
CN1CCN(Cc2ccc(-c3ccc(CO[C@H]4CCC[C@@H]4NC(=O)c4cc(-c5cnn(C)c5)cnc4N)cc3)cc2)CC1,enzyme activity,inhibitor,,0.1 µM,inhibition,-3%
Cc1cnc2nc1Nc1cccc(c1)COC/C=C/COCc1cc(ccc1OCCN1CCOCC1)N2,binding,,,0.1 µM,remaining binding,72%
CNC(=O)C1CCN(c2cc(C)c(F)cc2NC(=O)c2ccc(-c3cc(O)ccc3C)c(C)c2)CC1,binding,,competition with immobilised ligand,1 µM,remaining binding,100%
C=CC(=O)N1CCCC(n2c(=O)c3ncccc3n(Cc3ccc(Oc4ccccc4)cc3)c2=O)C1 (stereo not drawn),cell-free assay,,competition with immobilised ligand,1 µM,remaining binding,63%
COc1ccc(C(=O)/C=C/c2ccccc2-c2c[nH]c3ccc(C#N)cc23)c(O)c1,enzyme activity,inhibitor,,20 µM,inhibition,-9%
CC(C)=CC1OC(C)(C)C2C=C3C(=O)C(Cl)=CC(O)C3C3C(O)C4OC4C(=O)C132 (stereo not drawn),cell-free assay,,competition with immobilised ligand,10 µM,remaining binding,75%
CC(=O)N1c2ccc(-c3ccc(CNC(=O)c4cn5cc(-c6cnc(N)nc6)nc(N6CCOCC6)c5n4)cc3)cc2CC[C@@H]1C,enzyme activity,inhibitor,radiometric,10 µM,remaining activity,80%
CNC1C[S+]2CC[S+]3CC[S+](C1)[Ru-4]321([N]=C=S)[n]2c3ccc(OC)cc3c3c4c(c5cc(F)c[n+]1c5c32)C(=O)NC4=O (stereo not drawn),kinase activity,,,0.1 µM,remaining activity,98%
Cc1nc2c(F)cc(-c3nc(Nc4ccc(CNC(=O)CCCCCCC(=O)NO)cc4)ncc3F)cc2n1C(C)C,enzyme activity,inhibitor,,1 µM,inhibition,59%
O=C(Cc1ccc(OCc2ccccc2)cc1)NC1(C(=O)O)CCN(C(=O)c2ccc(-c3cccc(Cl)c3)cc2)CC1,enzyme activity,inhibitor,,10 µM,activity vs control,89%

# Some of these lines once more:
Structure (SMILES),observed,action,technique,tested at,measurement,value
CNC1C[S+]2CC[S+]3CC[S+](C1)[Ru-4]321([N]=C=S)[n]2c3ccc(OC)cc3c3c4c(c5cc(F)c[n+]1c5c32)C(=O)NC4=O (stereo not drawn),kinase activity,,,0.1 µM,remaining activity,98%
Cc1cnc2nc1Nc1cccc(c1)COC/C=C/COCc1cc(ccc1OCCN1CCOCC1)N2,binding,,,0.1 µM,remaining binding,72%
